Experimental data collected from several papers.
Lines come from different studies, so protocols differ.
UCHL1: Ubiquitin carboxyl-terminal hydrolase isozyme L1 (UCHL1, Homo sapiens, UniProt P09936)
Sequence of UniProt P09936 (whole entry, looked up): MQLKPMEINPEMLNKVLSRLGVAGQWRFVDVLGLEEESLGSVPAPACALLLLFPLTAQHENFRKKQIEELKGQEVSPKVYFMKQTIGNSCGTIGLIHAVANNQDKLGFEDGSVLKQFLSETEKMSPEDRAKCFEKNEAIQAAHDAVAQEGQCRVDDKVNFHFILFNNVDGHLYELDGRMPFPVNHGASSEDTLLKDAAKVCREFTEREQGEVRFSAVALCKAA
T1: RNA aptamer, 2'-5' linkage G15-U16; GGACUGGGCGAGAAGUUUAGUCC
T2: RNA aptamer; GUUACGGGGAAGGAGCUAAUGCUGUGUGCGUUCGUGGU
T3: RNA aptamer; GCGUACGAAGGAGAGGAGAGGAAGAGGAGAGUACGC
T4: RNA aptamer; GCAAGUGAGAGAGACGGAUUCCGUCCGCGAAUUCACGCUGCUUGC
T5: RNA aptamer; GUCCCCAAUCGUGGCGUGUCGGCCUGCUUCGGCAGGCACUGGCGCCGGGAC
T6: RNA aptamer; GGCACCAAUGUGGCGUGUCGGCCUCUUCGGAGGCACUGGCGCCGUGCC
T7: RNA aptamer, circularly permuted; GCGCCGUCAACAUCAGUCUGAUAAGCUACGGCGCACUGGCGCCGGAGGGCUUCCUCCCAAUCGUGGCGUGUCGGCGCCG
T8: RNA aptamer A45G, 5'-triphosphate/2',3'-cyclic phosphate; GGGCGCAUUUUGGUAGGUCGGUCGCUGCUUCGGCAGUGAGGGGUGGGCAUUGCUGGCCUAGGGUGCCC
T9: RNA aptamer circularly permuted; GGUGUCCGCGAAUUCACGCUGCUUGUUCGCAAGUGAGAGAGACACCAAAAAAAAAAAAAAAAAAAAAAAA

For `NCC[C@H](O)C(=O)N[C@@H]1C[C@H](N)[C@@H](O[C@H]2O[C@H](CN)[C@@H](O)[C@H](O)[C@H]2O)[C@H](O)[C@H]1O[C@H]1O[C@H](CO)[C@@H](O)[C@H](N)[C@H]1O`, the Kd was 1.5 µM (T1, RNA aptamer, 2'-5' linkage G15-U16; ITC).
For `N#CC(=Cc1ccccc1OC(F)F)C(=O)NC1CCCCC1`, the labelling was 21.6% (UCHL1; covalent, intact protein LC-MS; 12.5 µM).
`CN1C=CC(=Cc2sc3ccccc3[n+]2CC(=O)NCCOCCOCCOCCNC(=O)CCCC[C@@H]2SC[C@@H]3NC(=O)N[C@@H]32)c2ccccc21`: binding “binds” (T2, RNA aptamer; fluorescence light-up; 10 µM dye).
`CN1C=CC(=Cc2sc3ccccc3[n+]2CC(=O)NCCOCCOCCOCCNC(=O)CCCC[C@@H]2SC[C@@H]3NC(=O)N[C@@H]32)c2ccccc21` has a Kd of 0.00085 µM (T3, RNA aptamer; fluorescence titration; apparent).
For `N#CC(=Cc1c(Cl)cccc1Cl)C(=O)NCCc1ccccc1`, the labelling was 16.5% (UCHL1; covalent, intact protein LC-MS; 12.5 µM).
`Fc1ccc(Nc2nc(NCc3ncccn3)nc(Nc3ccccc3)n2)cc1` gave a Kd of 0.048 µM (T4, RNA aptamer; ITC; 37 °C).
`CN(CCO)c1cc2sc(/C=C(\C#N)c3ccc(C#N)cc3)cc2s1`: binding “binds” (T5, RNA aptamer; fluorescence turn-on).
With `CN(CCO)c1ccc(/C=C(\C#N)c2ccc(C#N)cc2)cc1` the Kd was 1.79 µM (T6, RNA aptamer; fluorescence titration, Hill fit; apparent).
For `CN(CCO)c1cc2sc(/C=C(\C#N)c3ccc(C#N)cc3)cc2s1`, binding read “no binding” (T7, RNA aptamer, circularly permuted; fluorescence activation, native PAGE).
For `Nc1nc2c(ncn2[C@@H]2O[C@H](COP(=O)(O)OP(=O)(O)OP(=O)(O)O)[C@@H](O)[C@H]2O)c(=O)[nH]1`, the Kd was 0.309 µM (T8, RNA aptamer A45G, 5'-triphosphate/2',3'-cyclic phosphate; ITC).
The Kd of `Fc1ccc(Nc2nc(NCc3ncccn3)nc(Nc3ccccc3)n2)cc1` is reported as 0.0212 µM (T9, RNA aptamer circularly permuted; SPR).

For quick reference, copied from above:
For `Nc1nc2c(ncn2[C@@H]2O[C@H](COP(=O)(O)OP(=O)(O)OP(=O)(O)O)[C@@H](O)[C@H]2O)c(=O)[nH]1`, the Kd was 0.309 µM (T8, RNA aptamer A45G, 5'-triphosphate/2',3'-cyclic phosphate; ITC).
